Experimental data collected from several papers.
Compare with care: the assays were run in different laboratories. Numbers after ± are the reported error. In brackets after ≈: the same amount, converted by molar mass.

`CN[C@@H]1[C@H](O)[C@H](NC)[C@H]2O[C@]3(O)[C@H](O[C@@H]2[C@H]1O)O[C@H](C)C[C@H]3NC(=O)Cc1cc(Cl)ccn1` gave an MIC of 1.6 µg/mL (≈ 3.29 µM) (Mycobacterium tuberculosis; microbial growth, broth dilution; H37RV).
For `CCC1(CC)C2CC3CC(C2)CC1(N(C)C)C3`, the EC50 was > 100 µM (Influenza A virus; viral replication).
`CC(C)(C)C1CCc2c(sc3nc(SCC(=O)NCCN4CCCCC4)nc(N)c23)C1` (stereo not drawn): kanamycin MIC “toxic” (Mycobacterium tuberculosis; K204; 100 µM, compound toxic alone, together with: kanamycin).
`CN[C@@H]1[C@H](O)[C@H](NC)[C@H]2O[C@]3(O)[C@H](O[C@@H]2[C@H]1O)O[C@H](C)C[C@H]3NC(=O)Cc1ccc(F)cn1` gave an MIC of 1.6 µg/mL (≈ 3.4 µM) (Mycobacterium tuberculosis; microbial growth, broth dilution; H37RV).
The IC50 of `Cc1ccccc1-c1nnn(C23CC4CC(CC(C4)C2)C3)n1` is reported as > 300 µg/mL (Influenza A virus; viral replication, inhibitor; A/Puerto Rico/8/34 (H1N1)).
`CN1CC23C4C=CC5C4C4C2C=CC4C53C1` gave an EC50 of > 100 µM (Influenza A virus; viral replication; A/X-31 (H3N2)).
`CN[C@@H]1[C@H](O)[C@H](NC)[C@H]2O[C@]3(O)[C@H](O[C@@H]2[C@H]1O)O[C@H](C)C[C@H]3NC(=O)Cc1cscn1` gave an MIC of 0.8 µg/mL (≈ 1.74 µM) (Mycobacterium tuberculosis; microbial growth, broth dilution; H37RV).
`CC(C)(C)C1CCc2c(sc3nc(SCCN4CCCC4)nc(N)c23)C1` (stereo not drawn): kanamycin MIC “toxic” (Mycobacterium tuberculosis; K204; 100 µM, compound toxic alone, together with: kanamycin).
With `CN[C@@H]1[C@H](O)[C@H](NC)[C@H]2O[C@]3(O)[C@H](O[C@@H]2[C@H]1O)O[C@H](C)C[C@H]3NC(=O)Cc1ccc(Cl)cn1` the MIC was 1.6 µg/mL (≈ 3.29 µM) (Mycobacterium tuberculosis; microbial growth; ATCC35837).
For `COc1ccc(CNC23CC4CC(CC(C4)C2)C3)c(O)c1`, the EC50 was 1.13 ± 0.03 µM (influenza A virus; viral replication; A/WSN/33 M2 N31S).
`CCC1(CC)C2CC3CC(C2)CC1(NC)C3` has an EC50 of > 100 µM (Influenza A virus; viral replication; A/X-31 (H3N2)).
`Nc1nc(SCCCN2CCCCC2)nc2sc3c(c12)CCCCC3` — result for kanamycin MIC: “toxic” (Mycobacterium tuberculosis; K204; 100 µM, compound toxic alone, together with: kanamycin).
`CCN(CC)C12C3CCC4C3C3C(CCC31)C42` has an EC50 of 11 ± 6 µM (Influenza A virus; viral replication; A/Virginia/ATCC3/2009 H1N1pdm).
Under kanamycin MIC, `CCC1CCc2c(sc3nc(SCC(=O)NCCN(CC)CC)nc(N)c23)C1` (stereo not drawn) is recorded as “toxic” (Mycobacterium tuberculosis; K204; 100 µM, compound toxic alone, together with: kanamycin).
With `COc1ccc(CNc2ccc(C34CC5CC(CC(C5)C3)C4)cc2)c(O)c1` the EC50 was 0.66 ± 0.21 µM (influenza A virus; viral replication; A/WSN/33 M2 N31S).
